Assay results from different studies.
Each line is one published result; not all experiments were run side by side. Values joined by “and” are separate records of one study, mostly repeats; a detail may differ.
U2AF2: U2AF2 148-342 (Homo sapiens, UniProt P26368)
Chain of UniProt P26368 (whole entry, looked up): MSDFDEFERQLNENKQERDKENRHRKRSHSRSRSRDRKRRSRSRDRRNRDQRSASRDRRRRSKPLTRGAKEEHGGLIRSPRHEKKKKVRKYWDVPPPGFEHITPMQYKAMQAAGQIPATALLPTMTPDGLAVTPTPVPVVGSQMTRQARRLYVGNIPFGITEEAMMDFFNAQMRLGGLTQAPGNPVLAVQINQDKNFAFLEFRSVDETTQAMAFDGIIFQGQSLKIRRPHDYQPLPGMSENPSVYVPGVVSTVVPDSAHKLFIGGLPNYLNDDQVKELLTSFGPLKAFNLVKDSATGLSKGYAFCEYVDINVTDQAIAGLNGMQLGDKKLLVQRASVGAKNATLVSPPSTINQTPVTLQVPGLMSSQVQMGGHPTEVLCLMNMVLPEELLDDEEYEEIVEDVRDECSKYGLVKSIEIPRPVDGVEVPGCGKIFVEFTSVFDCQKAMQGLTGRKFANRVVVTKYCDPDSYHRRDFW
B1: human ILK; sequence looked up; chain MDDIFTQCREGNAVAVRLWLDNTENDLNQGDDHGFSPLHWACREGRSAVVEMLIMRGARINVMNRGDDTPLHLAASHGHRDIVQKLLQYKADINAVNEHGNVPLHYACFWGQDQVAEDLVANGALVSICNKYGEMPVDKAKAPLRELLRERAEKMGQNLNRIPYKDTFWKGTTRTRPRNGTLNKHSGIDFKQLNFLTKLNENHSGELWKGRWQGNDIVVKVLKVRDWSTRKSRDFNEECPRLRIFSHPNVLPVLGACQSPPAPHPTLITHWMPYGSLYNVLHEGTNFVVDQSQAVKFALDMARGMAFLHTLEPLIPRHALNSRSVMIDEDMTARISMADVKFSFQCPGRMYAPAWVAPEALQKKPEDTNRRSADMWSFAVLLWELVTREVPFADLSNMEIGMKVALEGLRPTIPPGISPHVCKLMKICMNEDPAKRPKFDMIVPILEKMQDK
B2: human desmocollin-1; sequence looked up; chain RWAPIPASLMENSLGPFPQHVQQIQSDAAQNYTIFYSISGPGVDKEPFNLFYIEKDTGDIFCTRSIDREKYEQFALYGYATTADGYAPEYPLPLIIKIEDDNDNAPYFEHRVTIFTVPENCRSGTSVGKVTATDLDEPDTLHTRLKYKILQQIPDHPKHFSIHPDTGVITTTTPFLDREKCDTYQLIMEVRDMGGQPFGLFNTGTITISLEDENDNPPSFTETSYVTEVEENRIDVEILRMKVQDQDLPNTPHSKAVYKILQGNENGNFIISTDPNTNEGVLCVVKPLNYEVNRQVILQVGVINEAQFSKAASSQTPTMCTTTVTVKIIDSDEGPECHPPVKVIQSQDGFPAGQELLGYKALDPEISSGEGLRYQKLGDEDNWFEINQHTGDLRTLKVLDRESKFVKNNQYNISVVAVDAVGRSCTGTLVVHLDDYNDHAPQIDKEVTICQNNEDFAVLKPVDPDGPENGPPFQFFLDNSASKNWNIEEKDGKTAILRQRQNLDYNYYSVPIQIKDRHGLVATHMLTVRVCDCSTPSECRMKDKSTRDVRPNVILGRWAILAMVLGSVLLLCILFTCFCVTAKRTVKKCFPEDIAQQNLIVSNTEGPGEEVTEANIRLPMQTSNICDTSMSVGTVGGQGIKTQQSFEMVKGGYTLDSNKGGGHQTLESVKGVGQGDTGRYAYTDWQSFTQPRLGEKVYLCGQDEEHKHCEDYVCSYNYEGKGSLAGSVGCCSDRQEEEGLEFLDHLEPKFRTLAKTCIKK
B3: PCBD1, human; sequence looked up; chain AGKAHRLSAEERDQLLPNLRAVGWNELEGRDAIFKQFHFKDFNRAFGFMTRVALQAEKLDHHPEWFNVYNKVHITLSTHECAGLSERDINLASFIEQVAVSMT

Substance | tested on | test | system | conditions | how to read | quantity | value
AUUUUUUUU (ssRNA) | U2AF2 | sequencing of bound RNA | RNA | motif only |  | Kd | 530 nM
QSARYRDTEL | construct, MBP fusion, human SCRIB, PDZ 3-4 | automated holdup | peptide, crude extract | concentration not given, corrected by standard peak, unit not given | reference: biotin control resin, higher = stronger binding | binding intensity | 0.402
milbemycin oxime | Saccharomyces cerevisiae | cell growth | Pdr5 deleted, Cdr1 overexpressed | 2^-3.966 µg/mL, together with: fluconazole 1 µg/mL |  | OD600 | 0.082 and 0.07 and 0.088
ETDPIGFEF | Jurkat expressing engineered TCR | NFAT-eGFP reporter, fluorescence microscopy | peptide | concentration not given, HLA-A*01:01 on EL4 cells |  | GFP-positive cells | 7.65%
colistin | Klebsiella pneumoniae | broth microdilution | clinical isolate RKI-No 373/16-1 |  |  | MIC | 32 µg/mL
GSGAGRETEV | construct, MBP fusion, human SCRIB, PDZ 3-4 | automated holdup | peptide, purified PDZ protein | concentration not given, unit not given | reference: biotin control resin, higher = stronger binding | binding intensity | 0.517
B1 (human ILK) | CYB5R4 knockout human cells | PP4 interaction, 3xFLAG-PP4C IP-MS |  | concentration not given | reference: CYB5R4 KO over parental | log2 fold change | -0.49
CUGCGCGCU (ssRNA) | U2AF2 | sequencing of bound RNA | RNA | motif only |  | Kd | 3660 nM
epoetin alfa | UT7/EPO | microarray, refers to: GDF15 (probe 221577_x_at) |  | 5 U/mL, 90 min, together with: SCF 10 nM | reference: vehicle | mRNA level | 5.1 fold
B2 (human desmocollin-1) | PP6C (human) | co-immunoprecipitation, IP-MS | CYB5R4 knockout cells | concentration not given | reference: CYB5R4 knockout over parental | log2 fold change | 0.58
SEKHFRETEV | construct, MBP fusion, human SCRIB, PDZ 3-4 | automated holdup | peptide, purified PDZ protein | concentration not given, unit not given | reference: biotin control resin, higher = stronger binding | binding intensity | 0.804
PTBP1 (human) | CYB5R4 knockout human cells | PP4 interaction, 3xFLAG-PP4C IP-MS |  | concentration not given | reference: CYB5R4 KO over parental | log2 fold change | -0.7
Peginesatide | UT7/EPO | tyrosine phosphorylation, LC-MS/MS phosphoproteomics, trypsin, refers to: OTC tyrosine 55 |  | 10 nM, 15 min, together with: 10 U/mL EPO | reference: vehicle | phosphorylation level | 31.1 fold
difelikefalin |  |  | Japanese haemodialysis patients with pruritus | intravenous, 1.0 µg/kg, 8 weeks |  | PGIC no change | 8.3%
B3 (PCBD1, human) | CYB5R4 knockout human cells | PP4 interaction, 3xFLAG-PP4C IP-MS |  | concentration not given | reference: CYB5R4 KO over parental | log2 fold change | 2.51

For quick reference, copied from above:
Substance | tested on | test | system | conditions | how to read | quantity | value
AUUUUUUUU (ssRNA) | U2AF2 | sequencing of bound RNA | RNA | motif only |  | Kd | 530 nM
